Measured values from different studies.
Each numbered part is a random draw from the data of one study; scales do not carry over between parts. Values joined by “and” are separate records of one study, mostly repeats; a detail may differ.
Sequence of UniProt Q96PY6 (whole entry, looked up): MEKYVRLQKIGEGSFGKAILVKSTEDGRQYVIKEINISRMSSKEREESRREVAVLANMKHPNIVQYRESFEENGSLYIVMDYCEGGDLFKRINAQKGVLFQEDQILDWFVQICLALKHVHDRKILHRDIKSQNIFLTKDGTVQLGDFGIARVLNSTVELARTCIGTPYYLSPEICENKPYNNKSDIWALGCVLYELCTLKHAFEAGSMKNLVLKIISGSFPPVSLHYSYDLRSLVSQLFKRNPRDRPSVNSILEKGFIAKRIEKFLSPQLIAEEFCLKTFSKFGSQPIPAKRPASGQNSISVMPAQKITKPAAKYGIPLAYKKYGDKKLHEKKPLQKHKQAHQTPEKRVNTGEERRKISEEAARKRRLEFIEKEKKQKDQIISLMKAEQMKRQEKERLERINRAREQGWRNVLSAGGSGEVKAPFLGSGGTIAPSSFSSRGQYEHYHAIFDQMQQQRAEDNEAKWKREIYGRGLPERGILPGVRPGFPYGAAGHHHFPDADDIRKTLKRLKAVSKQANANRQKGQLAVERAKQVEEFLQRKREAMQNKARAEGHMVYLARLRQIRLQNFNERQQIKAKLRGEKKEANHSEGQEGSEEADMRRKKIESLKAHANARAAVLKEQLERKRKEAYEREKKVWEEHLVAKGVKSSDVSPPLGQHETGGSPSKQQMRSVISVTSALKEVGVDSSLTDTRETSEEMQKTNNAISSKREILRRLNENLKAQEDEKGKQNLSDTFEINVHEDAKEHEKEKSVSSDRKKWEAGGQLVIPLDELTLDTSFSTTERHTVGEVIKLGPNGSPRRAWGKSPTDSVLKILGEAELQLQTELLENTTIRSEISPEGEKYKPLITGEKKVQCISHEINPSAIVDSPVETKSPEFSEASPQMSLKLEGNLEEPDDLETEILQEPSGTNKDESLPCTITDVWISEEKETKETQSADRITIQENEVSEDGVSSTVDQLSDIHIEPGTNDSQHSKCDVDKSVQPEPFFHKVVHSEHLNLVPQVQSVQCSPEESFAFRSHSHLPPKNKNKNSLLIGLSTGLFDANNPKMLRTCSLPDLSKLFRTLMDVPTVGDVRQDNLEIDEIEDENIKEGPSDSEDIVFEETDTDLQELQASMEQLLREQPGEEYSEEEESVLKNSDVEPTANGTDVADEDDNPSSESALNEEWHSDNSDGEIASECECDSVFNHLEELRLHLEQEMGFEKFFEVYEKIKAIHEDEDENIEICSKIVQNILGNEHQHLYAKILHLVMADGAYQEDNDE
Sequence of UniProt P11362 (whole entry, looked up): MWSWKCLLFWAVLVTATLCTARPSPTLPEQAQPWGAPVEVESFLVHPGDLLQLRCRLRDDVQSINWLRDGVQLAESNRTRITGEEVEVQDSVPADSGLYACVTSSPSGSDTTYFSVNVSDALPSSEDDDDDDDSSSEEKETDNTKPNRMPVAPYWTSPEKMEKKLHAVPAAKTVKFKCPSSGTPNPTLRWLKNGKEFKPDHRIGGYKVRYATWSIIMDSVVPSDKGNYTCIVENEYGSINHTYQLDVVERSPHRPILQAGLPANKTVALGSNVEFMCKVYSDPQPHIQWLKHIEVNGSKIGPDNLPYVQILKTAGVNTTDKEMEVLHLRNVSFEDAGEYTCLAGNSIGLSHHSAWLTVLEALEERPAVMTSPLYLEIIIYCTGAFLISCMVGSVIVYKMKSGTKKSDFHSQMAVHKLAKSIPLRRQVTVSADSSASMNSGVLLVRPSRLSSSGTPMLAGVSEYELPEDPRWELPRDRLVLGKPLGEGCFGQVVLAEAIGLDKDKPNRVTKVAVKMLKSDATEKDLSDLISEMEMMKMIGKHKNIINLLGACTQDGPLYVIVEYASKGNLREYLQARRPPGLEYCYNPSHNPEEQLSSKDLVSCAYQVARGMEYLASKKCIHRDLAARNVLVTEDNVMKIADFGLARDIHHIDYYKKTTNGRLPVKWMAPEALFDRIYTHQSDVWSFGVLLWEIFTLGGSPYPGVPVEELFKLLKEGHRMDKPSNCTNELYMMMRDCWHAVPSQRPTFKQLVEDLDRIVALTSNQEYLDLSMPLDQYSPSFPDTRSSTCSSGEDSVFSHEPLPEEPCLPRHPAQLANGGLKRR
Sequence of UniProt P52333 (whole entry, looked up): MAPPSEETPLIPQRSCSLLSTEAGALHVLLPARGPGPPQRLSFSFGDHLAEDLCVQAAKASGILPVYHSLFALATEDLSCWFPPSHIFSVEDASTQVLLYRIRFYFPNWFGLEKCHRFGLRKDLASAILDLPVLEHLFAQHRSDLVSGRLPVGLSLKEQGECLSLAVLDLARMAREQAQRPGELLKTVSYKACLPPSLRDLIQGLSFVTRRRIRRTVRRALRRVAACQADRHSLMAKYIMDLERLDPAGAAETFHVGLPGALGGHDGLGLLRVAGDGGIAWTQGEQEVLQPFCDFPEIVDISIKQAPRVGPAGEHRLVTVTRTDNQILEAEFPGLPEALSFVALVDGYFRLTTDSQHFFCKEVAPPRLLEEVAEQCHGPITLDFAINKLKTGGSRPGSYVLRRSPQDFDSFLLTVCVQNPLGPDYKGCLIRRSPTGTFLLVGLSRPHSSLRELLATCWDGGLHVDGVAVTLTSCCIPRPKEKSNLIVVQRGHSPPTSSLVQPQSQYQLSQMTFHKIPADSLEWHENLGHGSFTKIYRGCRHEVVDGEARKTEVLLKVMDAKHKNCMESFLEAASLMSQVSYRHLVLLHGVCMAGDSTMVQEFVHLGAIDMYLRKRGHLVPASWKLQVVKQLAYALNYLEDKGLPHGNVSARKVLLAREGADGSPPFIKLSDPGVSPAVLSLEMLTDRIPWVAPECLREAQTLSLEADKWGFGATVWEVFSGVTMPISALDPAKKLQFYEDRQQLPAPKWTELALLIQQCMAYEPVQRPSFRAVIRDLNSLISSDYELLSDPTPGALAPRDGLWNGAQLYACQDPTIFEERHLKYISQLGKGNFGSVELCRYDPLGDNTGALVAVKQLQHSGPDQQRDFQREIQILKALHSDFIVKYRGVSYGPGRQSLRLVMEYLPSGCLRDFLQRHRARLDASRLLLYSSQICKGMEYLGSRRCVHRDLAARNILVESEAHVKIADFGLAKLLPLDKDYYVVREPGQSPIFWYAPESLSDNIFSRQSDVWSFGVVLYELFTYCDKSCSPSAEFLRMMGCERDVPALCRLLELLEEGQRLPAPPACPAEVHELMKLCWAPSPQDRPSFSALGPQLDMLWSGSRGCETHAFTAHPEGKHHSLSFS
Sequence of UniProt P49841 (whole entry, looked up): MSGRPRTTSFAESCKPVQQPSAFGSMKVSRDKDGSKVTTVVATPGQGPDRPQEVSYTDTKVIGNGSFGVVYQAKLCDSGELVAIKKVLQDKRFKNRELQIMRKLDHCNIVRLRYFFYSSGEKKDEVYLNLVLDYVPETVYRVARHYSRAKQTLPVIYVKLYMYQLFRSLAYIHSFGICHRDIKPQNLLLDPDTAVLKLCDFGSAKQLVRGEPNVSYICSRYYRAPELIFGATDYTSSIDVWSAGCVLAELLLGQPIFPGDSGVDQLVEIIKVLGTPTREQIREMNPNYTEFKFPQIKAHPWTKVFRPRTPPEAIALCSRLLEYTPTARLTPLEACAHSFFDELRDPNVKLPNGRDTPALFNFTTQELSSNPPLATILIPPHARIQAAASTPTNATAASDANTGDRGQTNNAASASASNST

Study 1
Sample: 1,9-decadiene/PBS
pH: 7.4
The logD of CC(C)C[C@@H]1NC(=O)[C@H](CC(C)C)NC(=O)[C@@H](C(C)C)NC(=O)[C@H](C(C)C)NC(=O)[C@H](C(C)C)NC(=O)[C@H](C)NC(=O)[C@H](C)NC1=O is reported as -1.74.
CC(C)C[C@@H]1NC(=O)[C@H](CC(C)C)NC(=O)[C@@H](CC(C)C)NC(=O)[C@H](C(C)C)NC(=O)[C@@H](CCC(=O)N2CCCC2)NC(=O)[C@H](C)NC(=O)[C@H](C)NC1=O has a logD of -2.8.
CC(C)C[C@@H]1NC(=O)[C@H](C)NC(=O)[C@@H](CC(C)C)NC(=O)[C@@H](CC(C)C)NC(=O)[C@H](C)NC(=O)[C@H](CC(C)C)NC(=O)[C@@H](CC(C)C)NC1=O gave a logD of 0.546.
The logD of CC(C)C[C@@H]1NC(=O)[C@H](C)NC(=O)[C@H](C)NC(=O)[C@H](CCC(=O)N2CCCC2)NC(=O)[C@H](CC(C)C)NC(=O)[C@H](CC(C)C)NC(=O)[C@@H](C(C)C)NC1=O is reported as -2.96.
With CC(C)C[C@@H]1NC(=O)[C@H](Cc2cscn2)NC(=O)[C@H](Cc2cscn2)NC(=O)[C@H](CC(C)C)NC(=O)[C@@H](CCC(=O)N2CCCC2)NC(=O)[C@H](CC(C)C)NC(=O)[C@@H](CC(C)C)NC1=O the logD was -0.802.
CC(C)C[C@@H]1NC(=O)[C@H](CC(C)C)NC(=O)[C@@H](CC(C)C)NC(=O)[C@H](Cc2cscn2)NC(=O)[C@@H](CCC(=O)N2CCCC2)NC(=O)[C@H](Cc2cscn2)NC(=O)[C@H](C)NC1=O has a logD of -2.7.

Study 2
Structure (SMILES): COc1ccc(-c2cnc3c(-c4ccsc4)cnn3c2)cc1
Effect on: enzyme activity
Action: inhibitor
Tested at: 0.5 µM
Relative to: control
For ABL2 (Homo sapiens, UniProt P42684): remaining activity read 63.4%.
It gave 99.4% for remaining activity (GSK3B (Homo sapiens, UniProt P49841)).
MAP2K2 (Homo sapiens, UniProt P36507) — remaining activity: 95.5%.
The remaining activity was 81.2% (MERTK (Homo sapiens, UniProt Q12866)).
For FGFR1 (Homo sapiens, UniProt P11362): remaining activity read 80.3%.
For CSNK1G3 (Homo sapiens, UniProt Q9Y6M4): remaining activity read 102%.
GRK7 (Homo sapiens, UniProt Q8WTQ7) — remaining activity: 99.9%.
WEE1 (Homo sapiens, UniProt P30291) — remaining activity: 102%.
It gave 98.5% for remaining activity (JAK3 (Homo sapiens, UniProt P52333)).
It gave 91.6% for remaining activity (MST1R (Homo sapiens, UniProt Q04912)).
The remaining activity was 89.4% (NEK1 (Homo sapiens, UniProt Q96PY6)).
For MAP3K5 (Homo sapiens, UniProt Q99683): remaining activity read 105%.
For MAPK3 (Homo sapiens, UniProt P27361): remaining activity read 99.5%.
For NEK6 (Homo sapiens, UniProt Q9HC98): remaining activity read 99.3%.

Study 3
Cell line: normal-adjacent organoid sample G
Technique: CellTiter-Glo
Tested at: 1 µM
Setting: replicate mean
Relative to: DMSO
CN(C)c1ncnc(-c2ccc3nc(Nc4cc(CN5CCN(C(=O)CC(F)(F)F)CC5)ccn4)[nH]c3c2)c1Cl has a viability of 101%.
For C[C@@H]1CN(c2cc(-c3nn(C)c4ccc(OC5(C)CC5)cc34)ncn2)C[C@H](C)O1, the viability was 103%.
O=C(O)[C@@H]1[C@@H](Cn2nnc3ccccc3c2=O)CC[C@H]1C(=O)c1ccc(OCCC2CCOCC2)cc1 has a viability of 108%.
The viability of CCc1ccccc1C(=O)Nc1n[nH]c2c(C)c(F)c(C3C(C#N)=C(C)N(C)C(C)=C3C#N)cc12 is reported as 78.6%.
O=C1CCc2cc(Nc3cc(OC4CCOCC4)c([N+](=O)[O-])cc3Cl)ccc2N1 gave a viability of 121%.
With CCCCN(Cc1ccccc1)C(=O)c1ccc(S(=O)(=O)Nc2ccccc2)cc1 the viability was 99.9%.

Further values, each from its own experiment
Target: DDB1- and CUL4-associated factor 1 (DCAF1, Homo sapiens, UniProt Q9Y4B6)
Sequence of UniProt Q9Y4B6 (whole entry, looked up): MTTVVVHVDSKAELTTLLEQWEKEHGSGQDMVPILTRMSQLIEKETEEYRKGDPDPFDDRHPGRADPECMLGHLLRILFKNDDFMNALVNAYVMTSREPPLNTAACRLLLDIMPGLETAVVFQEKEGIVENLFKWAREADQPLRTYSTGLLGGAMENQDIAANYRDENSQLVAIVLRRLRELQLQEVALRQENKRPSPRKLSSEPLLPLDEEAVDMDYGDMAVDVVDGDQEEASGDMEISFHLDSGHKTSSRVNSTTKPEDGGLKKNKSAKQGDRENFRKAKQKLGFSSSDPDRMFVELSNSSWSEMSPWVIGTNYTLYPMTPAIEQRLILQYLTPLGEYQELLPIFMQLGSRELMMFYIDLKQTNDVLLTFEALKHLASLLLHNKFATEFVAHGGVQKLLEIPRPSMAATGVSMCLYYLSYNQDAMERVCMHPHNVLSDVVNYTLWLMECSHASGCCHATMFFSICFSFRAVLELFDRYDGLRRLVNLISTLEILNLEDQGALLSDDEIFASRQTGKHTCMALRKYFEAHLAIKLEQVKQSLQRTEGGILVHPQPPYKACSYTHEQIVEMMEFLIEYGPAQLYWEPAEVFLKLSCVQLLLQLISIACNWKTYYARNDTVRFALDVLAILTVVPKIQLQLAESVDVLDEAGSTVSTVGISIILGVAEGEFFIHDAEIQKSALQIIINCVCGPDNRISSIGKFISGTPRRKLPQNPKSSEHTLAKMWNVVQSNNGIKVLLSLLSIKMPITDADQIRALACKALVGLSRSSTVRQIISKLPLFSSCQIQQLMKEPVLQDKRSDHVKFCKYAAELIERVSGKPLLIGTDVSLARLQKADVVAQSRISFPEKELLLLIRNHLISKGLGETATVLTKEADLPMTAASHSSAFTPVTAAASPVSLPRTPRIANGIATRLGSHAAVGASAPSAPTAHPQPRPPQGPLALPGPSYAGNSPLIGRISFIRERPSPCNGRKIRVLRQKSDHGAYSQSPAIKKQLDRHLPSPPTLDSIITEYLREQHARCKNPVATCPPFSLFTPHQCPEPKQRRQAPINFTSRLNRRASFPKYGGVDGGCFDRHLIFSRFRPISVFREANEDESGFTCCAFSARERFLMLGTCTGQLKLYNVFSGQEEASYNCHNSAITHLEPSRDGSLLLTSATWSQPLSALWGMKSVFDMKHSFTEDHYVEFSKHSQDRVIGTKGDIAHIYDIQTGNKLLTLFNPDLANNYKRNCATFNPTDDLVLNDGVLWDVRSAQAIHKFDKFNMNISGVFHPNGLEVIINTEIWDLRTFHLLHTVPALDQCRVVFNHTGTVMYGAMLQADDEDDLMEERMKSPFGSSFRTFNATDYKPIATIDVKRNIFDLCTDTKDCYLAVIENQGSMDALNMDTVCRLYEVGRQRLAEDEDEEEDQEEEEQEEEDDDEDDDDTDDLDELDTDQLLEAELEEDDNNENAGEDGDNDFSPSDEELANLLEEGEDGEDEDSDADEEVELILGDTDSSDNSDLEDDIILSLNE
Technique: differential scanning fluorimetry
Tested at: concentration not given
Setting: unit not given
Relative to: DCAF1 alone
The ΔTm of C[C@@H]1CN(c2ccc(-c3cc(C(=O)NCCOCCOCCOCCOCCOCCOCCOCCOCCOCCNC(=O)/C=C/c4[nH]cc(C(=O)N[C@@H](CC(N)=O)c5ccc(F)c(Cl)c5)c4-c4ccc(Cl)cc4F)ccc3F)cc2NC(=O)c2c[nH]c(=O)cc2C(F)(F)F)C[C@H](C)N1C is reported as 5.28 and 5.67 and 5.27 and 5.19 and 5.06 and 5.51 and 5.12 and 5.57.
For C[C@@H]1CN(c2ccc(-c3cc(C(=O)NCCOCCOCCOCCOCCOCCOCCNC(=O)/C=C/c4[nH]cc(C(=O)N[C@@H](CC(N)=O)c5ccc(F)c(Cl)c5)c4-c4ccc(Cl)cc4F)ccc3F)cc2NC(=O)c2ccc(F)cc2C(F)(F)F)C[C@H](C)N1C, the ΔTm was 5.3 and 5.52 and 5.48 and 5.34 and 5.39 and 5.07 and 5.13.
